# Assay results collected from several papers.
# Numbered parts are unrelated; each lists some results of a single study. Values joined by “and” are separate records of one study, mostly repeats; a detail may differ.
# Sequence of UniProt Q9UJQ4 (whole entry, looked up): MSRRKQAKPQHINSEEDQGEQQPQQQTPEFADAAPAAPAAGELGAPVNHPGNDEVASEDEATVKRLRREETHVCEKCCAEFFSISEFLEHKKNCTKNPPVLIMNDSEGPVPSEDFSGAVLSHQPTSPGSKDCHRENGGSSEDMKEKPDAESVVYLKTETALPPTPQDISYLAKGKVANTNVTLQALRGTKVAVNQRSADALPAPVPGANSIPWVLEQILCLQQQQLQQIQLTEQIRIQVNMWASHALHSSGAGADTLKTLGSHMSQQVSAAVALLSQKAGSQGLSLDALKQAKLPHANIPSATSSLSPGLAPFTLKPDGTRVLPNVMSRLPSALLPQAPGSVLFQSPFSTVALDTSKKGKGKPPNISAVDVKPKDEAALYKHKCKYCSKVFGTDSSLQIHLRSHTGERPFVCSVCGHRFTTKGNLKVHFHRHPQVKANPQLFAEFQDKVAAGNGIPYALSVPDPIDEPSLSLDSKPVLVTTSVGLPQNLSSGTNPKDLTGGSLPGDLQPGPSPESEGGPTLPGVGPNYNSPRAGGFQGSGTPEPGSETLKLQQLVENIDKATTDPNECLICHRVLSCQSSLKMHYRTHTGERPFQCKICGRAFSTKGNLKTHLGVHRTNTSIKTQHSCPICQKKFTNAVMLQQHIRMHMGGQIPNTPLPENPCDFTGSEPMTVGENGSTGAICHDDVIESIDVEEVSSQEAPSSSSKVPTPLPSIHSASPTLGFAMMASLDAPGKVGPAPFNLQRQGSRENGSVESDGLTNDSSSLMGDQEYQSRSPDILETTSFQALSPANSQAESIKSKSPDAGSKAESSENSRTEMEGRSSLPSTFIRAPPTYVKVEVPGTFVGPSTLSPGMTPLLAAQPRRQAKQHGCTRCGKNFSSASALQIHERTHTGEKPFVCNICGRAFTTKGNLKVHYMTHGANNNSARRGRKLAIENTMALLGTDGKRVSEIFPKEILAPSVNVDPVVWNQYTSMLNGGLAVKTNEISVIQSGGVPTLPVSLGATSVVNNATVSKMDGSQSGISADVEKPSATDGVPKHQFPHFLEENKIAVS
# Sequence of UniProt Q9UKS7 (whole entry, looked up): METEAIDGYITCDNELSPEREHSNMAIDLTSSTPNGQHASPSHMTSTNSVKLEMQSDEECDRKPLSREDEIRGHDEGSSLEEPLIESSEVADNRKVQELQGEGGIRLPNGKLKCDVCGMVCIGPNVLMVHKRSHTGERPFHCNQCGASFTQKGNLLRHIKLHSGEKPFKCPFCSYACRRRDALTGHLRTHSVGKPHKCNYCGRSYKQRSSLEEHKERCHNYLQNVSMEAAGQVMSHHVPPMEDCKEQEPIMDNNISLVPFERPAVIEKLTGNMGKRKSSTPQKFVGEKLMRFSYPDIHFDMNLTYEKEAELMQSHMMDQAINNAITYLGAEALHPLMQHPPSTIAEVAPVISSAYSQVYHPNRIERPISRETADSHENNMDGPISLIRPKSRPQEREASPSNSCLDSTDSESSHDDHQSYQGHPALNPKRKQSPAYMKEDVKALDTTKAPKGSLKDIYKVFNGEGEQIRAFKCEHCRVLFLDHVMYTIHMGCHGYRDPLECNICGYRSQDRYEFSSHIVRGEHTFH
# Sequence of UniProt Q96SW2 (whole entry, looked up): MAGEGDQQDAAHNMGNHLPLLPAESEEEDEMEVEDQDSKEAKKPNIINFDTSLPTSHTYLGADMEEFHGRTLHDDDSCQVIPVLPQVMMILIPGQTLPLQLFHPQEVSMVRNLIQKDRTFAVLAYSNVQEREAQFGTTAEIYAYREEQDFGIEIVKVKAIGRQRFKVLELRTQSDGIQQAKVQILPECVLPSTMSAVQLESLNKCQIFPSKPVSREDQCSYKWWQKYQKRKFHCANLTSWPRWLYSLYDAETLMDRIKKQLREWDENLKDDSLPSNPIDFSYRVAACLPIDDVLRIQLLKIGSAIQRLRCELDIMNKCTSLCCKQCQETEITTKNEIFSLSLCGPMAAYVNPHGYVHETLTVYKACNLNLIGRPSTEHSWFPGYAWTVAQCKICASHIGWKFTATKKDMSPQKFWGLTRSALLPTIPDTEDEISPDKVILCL

# Series 1
# Structure (SMILES): O=C(O)C1(O)Oc2cc(F)ccc2N(Cc2ccccc2)C1=O (centres unmarked)
organism,test,system,conditions,scale,inhibition
Arabidopsis thaliana,root length,"Col-0, seedlings",6.25 µg/mL,relative to: water control,60%
Glycine max,fresh weight,,"soil surface spray, 150 g ai/ha, 21 days, pre-emergence crop safety",,3.5% and 2.2% and 2.7%
Arabidopsis thaliana,root length,"Col-0, seedlings",25 µg/mL,,88.3%
Arabidopsis thaliana,hypocotyl length,Col-0,"12.5 µg/mL, 7 days, seed germination, dark",,45.1%
Arabidopsis thaliana,root length,"Col-0, seedlings",3.125 µg/mL,,41.1%
Arabidopsis thaliana,hypocotyl length,"Col-0, seedlings","50 µg/mL, half-strength MS",,99.4%
Arabidopsis thaliana,root length,"Col-0, seedlings",25 µg/mL,relative to: water control,88.3%
Amaranthus retroflexus,fresh weight,,"150 g ai/ha, post-emergence treatment",,70.4% and 75% and 71.5%

# Series 2 — cell line: NCI-H292; method: CellTiter-Glo; time: 72 h; direction: higher = more viable cells
# SMILES: CCONC(=O)/C=C/CNCCCCN1c2cc(Cl)ccc2CCc2cnn(C)c21.O=C(O)/C=C\C(=O)O
conditions,luminescence
5 µM,2.36e+06 a.u. and 2.33e+06 a.u. and 2.73e+06 a.u.
50 µM,34700 a.u. and 38900 a.u. and 31700 a.u.
0.005 µM,4.21e+06 a.u. and 3.61e+06 a.u. and 3.89e+06 a.u.
0.05 µM,4.01e+06 a.u. and 3.89e+06 a.u. and 3.69e+06 a.u.
0.5 µM,3.94e+06 a.u. and 3.63e+06 a.u. and 4.14e+06 a.u.

# Series 3 — method: FLIPR membrane potential; cells: CHO-BC; tested at: concentration not given; relative to: background subtracted
# Target: Sodium-dependent neutral amino acid transporter B(0)AT1 (SLC6A19, Homo sapiens, UniProt Q695T7)
# Sequence of UniProt Q695T7 (whole entry, looked up): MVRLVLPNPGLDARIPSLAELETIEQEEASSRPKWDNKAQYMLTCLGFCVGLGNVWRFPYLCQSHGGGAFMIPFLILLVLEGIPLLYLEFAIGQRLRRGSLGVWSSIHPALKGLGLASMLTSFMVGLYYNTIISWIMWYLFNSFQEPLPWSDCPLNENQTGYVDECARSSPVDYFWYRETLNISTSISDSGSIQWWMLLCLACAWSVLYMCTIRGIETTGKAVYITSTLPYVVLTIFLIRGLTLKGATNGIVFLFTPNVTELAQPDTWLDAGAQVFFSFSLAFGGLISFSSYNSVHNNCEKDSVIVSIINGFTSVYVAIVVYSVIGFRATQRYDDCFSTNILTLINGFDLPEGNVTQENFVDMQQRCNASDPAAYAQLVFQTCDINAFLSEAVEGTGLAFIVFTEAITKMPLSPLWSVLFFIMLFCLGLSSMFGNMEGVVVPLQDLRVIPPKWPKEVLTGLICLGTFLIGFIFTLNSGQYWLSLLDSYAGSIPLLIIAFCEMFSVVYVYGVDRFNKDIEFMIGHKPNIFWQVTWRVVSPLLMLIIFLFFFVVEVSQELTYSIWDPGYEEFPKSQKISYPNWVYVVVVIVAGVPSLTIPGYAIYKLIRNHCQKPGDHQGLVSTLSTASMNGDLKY
SMILES,remaining activity
CNC(=O)COc1cc(C)c(Cl)c(C)c1,44.1%
CCNC(=O)COc1cc(C)c(Cl)c(C)c1,3.46%
CC(C)NC(=O)COC(c1ccccc1)c1ccccc1,82.9%
CC(C)NC(=O)COc1ccc(I)cc1,9.31%
CC(C)NC(=O)COc1ccc(Cl)cc1,34.5%
CC(C)NC(=O)COc1ccc2ccccc2c1,1.17%
Cc1cc(OCC(=O)NC(C)C)ccc1Cl,8.08%
Cc1cc(NCC(=O)NC(C)C)cc(C)c1I,-2.56%

# Single results of other studies — mode: degrader; method: HiBiT; cells: HEK293
Compound,target,conditions,endpoint,value
O=C1CCC(N2Cc3c(ccc4c3OCC43CCN(Cc4ccccc4)CC3O)C2=O)C(=O)N1 (centres unmarked),"CRBN/Zinc finger protein Helios (Homo sapiens, UniProt Q96SW2+Q9UKS7)",123.5 nM,protein remaining,80.7%
Cn1cc(-c2cccc(CN3CCC4(CC3)COc3c4ccc4c3CN([C@@H]3CCC(=O)NC3=O)C4=O)c2)cn1,"Sal-like protein 4 (SALL4, Homo sapiens, UniProt Q9UJQ4)",0.1694 nM,remaining protein,107% and 105%

# Excerpt of the above (series 3):
SMILES,remaining activity
CC(C)NC(=O)COc1ccc(I)cc1,9.31%
CC(C)NC(=O)COC(c1ccccc1)c1ccccc1,82.9%
